# Earlier results as cited in several papers.
# ± marks the error that the study gave.
SMILES,target or system,assay,system,conditions,measurement,result
CC1=C(C)C(=O)OC(C(C)(O)C2(O)CCC3(O)C4CC5OC56C(O)C=CC(=O)C6(C)C4CCC32C)C1 (stereo not drawn),Hep3B,cell growth,,,IC50,0.2 µM
CC[C@H](C)C(=O)N1CCC(NC(=O)Nc2ccc(OC(F)(F)F)c(F)c2)CC1,human CYP2B6,inhibitor,,up to solubility limit,inhibition,no inhibition
CC(=O)C[Se]C(=O)c1ccc(Cl)cc1,MCF7,,,,IC50,1.5 µM
CN[C@H](CC(C)C)C(=O)N[C@H]1C(=O)N[C@@H](CC(N)=O)C(=O)N[C@H]2C(=O)N[C@H]3C(=O)N[C@H](C(=O)N[C@H](C(=O)O)c4cc(O)cc(O)c4-c4cc3ccc4O)[C@H](O)c3ccc(c(Cl)c3)Oc3cc2cc(c3O[C@@H]2O[C@H](CO)[C@@H](O)[C@H](O)[C@H]2O[C@H]2C[C@](C)(NCc3ccc(-c4ccc(Cl)cc4)cc3)[C@H](O)[C@H](C)O2)Oc2ccc(cc2Cl)[C@H]1O,,,mouse,intravenous,maximum tolerated dose,75 mg/kg
[Cl][Au-][P+](c1ccccc1)(c1ccccc1)c1cc[cH-]c1.[Cl][Au-][P+](c1ccccc1)(c1ccccc1)c1cc[cH-]c1.[Cl][Ti+2][Cl],DU-145,cell growth,,24 h,IC50,27.3 µM
CCCCCCCC(=O)NCC(=O)N[C@@H](C)C(=O)N[C@@H](CC(C)C)C(=O)N[C@](C)(CC)C(=O)N[C@@H](C)C(=O)N[C@H](C(=O)N[C@H](CO)CC(C)C)[C@@H](C)CC,MDA-MB-231,"cell viability, MTT",,,IC50,5 µM
CC[C@H](C)[C@H](NC(=O)[C@H](CCCCN)NC(=O)[C@H](CCCCN)NC(=O)[C@H](Cc1c[nH]c2ccccc12)NC(=O)[C@H](CC(N)=O)NC(=O)[C@@H](N)C(C)C)C(=O)N[C@@H](CC(C)C)C(=O)NCC(=O)N[C@@H](CCCCN)C(=O)N[C@H](C(=O)N[C@H](C(=O)N[C@@H](CCCCN)C(=O)N[C@H](C(=O)N[C@H](C(=O)N[C@@H](CCCCN)C(N)=O)C(C)C)C(C)C)[C@@H](C)CC)[C@@H](C)CC,eukaryotic cells,cytotoxicity,,,IC50,4.5 to 15 µM
C#CCN[C@@H]1C=C[C@]2(O[C@H]([C@@H](CC)C(=O)[C@@H](C)[C@@H](O)[C@H](C)[C@@H]3O[C@@H]([C@@H](CC)C(=O)O)CC[C@@H]3C)[C@@H](C)C[C@H]2C)O[C@@]12CC[C@@](C)([C@H]1CC[C@](O)(CC)[C@H](C)O1)O2,HMLER CD24 low/CD44 high,cell viability,,,IC50,~0.1 µM
C=CCc1cc(OC)c(OC)c(OC)c1OC,A549,cell growth,,,IC50,122 µM
CC[C@H](C)[C@H](NC(=O)[C@H](CCCCN)NC(=O)[C@H](CCCCN)NC(=O)[C@H](C)NC(=O)[C@@H](NC(=O)[C@H](C)NC(=O)[C@H](CC(C)C)NC(=O)[C@H](CC(C)C)NC(=O)[C@H](C)NC(=O)[C@H](CCCCN)NC(=O)[C@H](CC(C)C)NC(=O)[C@H](CC(N)=O)NC(=O)[C@@H](N)CC(C)C)C(C)C)C(=O)N[C@@H](CC(C)C)C(N)=O,Candida albicans,,ATCC 10231,,MIC,100 µM
CC1=C(C)C(=O)OC(C(C)(O)C2(O)CCC3(O)C4CC5OC56CC=CC(=O)C6(C)C4CCC32C)C1 (stereo not drawn),MDA-MB-231,cell growth,,,IC50,0.97 µM
"CCOC(=O)C1C(OC(c2ccc(Cl)cc2)c2ccc(Cl)cc2)CC2CCC1N2C (single isomer, unassigned)",norepinephrine transporter,,,,Ki,3.35 ± 0.154 µM
N#CC1=C(N)Oc2c(c(=O)oc3ccccc23)C1c1ccc(-n2nnc3ccccc32)cc1 (stereo not drawn),MCF7,cell growth,,,IC50,12.5 ± 2.72 µM
F[P-](F)(F)(F)(F)F.NCCN.[Cl][Ru+].c1ccc(-c2ccccc2)cc1,HBL-100,,,,IC50,54 µM
O=C(OCC[18F])C1C2CCC(CC1c1ccc(/C=C\I)cc1)N2 (stereo not drawn),SERT,HRRT PET,"awake rhesus monkey, pons",,time to peak uptake,> 75 min

# A few entries again:
SMILES,target or system,assay,system,conditions,measurement,result
[Cl][Au-][P+](c1ccccc1)(c1ccccc1)c1cc[cH-]c1.[Cl][Au-][P+](c1ccccc1)(c1ccccc1)c1cc[cH-]c1.[Cl][Ti+2][Cl],DU-145,cell growth,,24 h,IC50,27.3 µM
CC[C@H](C)C(=O)N1CCC(NC(=O)Nc2ccc(OC(F)(F)F)c(F)c2)CC1,human CYP2B6,inhibitor,,up to solubility limit,inhibition,no inhibition
